Values quoted from earlier work that unrelated publications cite.
Protocols differ between the studies behind these lines. Numbers after ± are the reported error.

| SMILES | system | setting | scale | endpoint | result |
| --- | --- | --- | --- | --- | --- |
| CC(C)NCC1CCc2cc(CO)c([N+](=O)[O-])cc2N1 (centres unmarked) | healthy human | oral, 1000 mg | – | Tmax | 1.4 ± 0.417 h |
| CO[C@H]1C[C@@H]2CC[C@@H](C)[C@@](O)(O2)C(=O)C(=O)N2CCCC[C@H]2C(=O)O[C@H]([C@H](C)C[C@@H]2CC[C@@H](OC(=O)C(C)(CO)CO)[C@H](OC)C2)CC(=O)[C@H](C)/C=C(\C)[C@@H](O)[C@@H](OC)C(=O)[C@H](C)C[C@H](C)/C=C/C=C/C=C/1C | human | intravenous, 25 mg once weekly, day 7 or 28 | – | Tmax | 0.5 h |
| O=C(CCCCCCC(=O)Nc1ccccc1)NO | human | 200 mg, literature mean | – | Tmax | 2 h |
| COc1ccnc(C[S+]([O-])c2nc3ccc(OC(F)F)cc3[nH]2)c1OC (centres unmarked) | human, nonobese children | age 6-11 y, historical | median | Tmax | 2 h |
| CS(=O)(=O)CCNCc1ccc(-c2ccc3ncnc(Nc4ccc(OCc5cccc(F)c5)c(Cl)c4)c3c2)o1 | human cancer patients, plasma | 1250 mg multiple doses, fed, median | – | Tmax | 3.5 h |
| COc1cc(N2CCC(N3CCN(C)CC3)CC2)ccc1Nc1ncc(Cl)c(Nc2ccccc2P(C)(C)=O)n1 | healthy human | oral, 180 mg, added: high-fat meal | reference: fasted | Tmax delay | 3.5 h |
| COc1ccc(-n2nc(C(N)=O)c3c2C(=O)N(c2ccc(N4CCCCC4=O)cc2)CC3)cc1 | human | oral, dose not given, immediate-release tablet | – | Tmax | ≤ 3 h |
| Cc1[nH]c2ccccc2c1CCNCc1ccc(/C=C/C(=O)NO)cc1 | human | high-fat meal | reference: fasted | Tmax delay | ~2 h |
| COc1cccc(CCc2ccccc2OCC(CN(C)C)OC(=O)CCC(=O)O)c1 (racemic) | human | oral, 50 mg single dose as hydrochloride, geometric mean | – | Tmax | 0.66 h |
| O[C@@H](COc1cccc2ncccc12)CN1CCN([C@@H]2c3ccccc3[C@@H]3[C@H](c4ccccc42)C3(F)F)CC1 | human | oral, dose not given | – | Tmax | 1 to 4 h |
| C[C@H](Nc1ncnc2[nH]cnc12)c1cc2cccc(Cl)c2c(=O)n1-c1ccccc1 | human, hematologic malignancy | oral, 25 mg twice daily | – | Tmax | 1 to 2 h |
